Published values from different studies.
Lines come from different studies, so protocols differ. Values joined by “and” are separate records of one study, mostly repeats; a detail may differ. ± marks the error that the study gave.
Cell line: HeLa

CCC(=CCc1c(O)cc2c(c1O)C(=O)CC(c1c(O)cccc1OC)O2)CC (centres unmarked)  IC50 (cell growth or viability, MTT; 48 h): > 100 µM
O=C(NCCOCCNC(=O)c1cc2ccccc2c2ccccc12)c1cc(C(=O)N2CCNCCNCCNCC2)c(O)c(C(=O)N2CCNCCNCCNCC2)c1  IC50 (cell growth or viability, MTT; 24 h): > 1000 µM
NCCOc1cc(NC(=O)c2cc(Cl)cc(C(=O)Nc3cc(OCCN)c4ccccc4n3)n2)nc2ccccc12  IC50 (cell growth or viability, ATP luminescence; 72 h): 1.5 µM
CCCC[N+]1=c2cc3c4cc2[O][Mn-2]1(=[C]=O)(=[C]=O)(=[C]=O)[n+]1ccc(cc1)C(=O)Oc1ccccc1OC(=O)c1cc[n+](cc1)[Mn-2](=[C]=O)(=[C]=O)(=[C]=O)([O]3)[N+]=4CCCC  IC50 (cell growth, MTT; 48 h, LED photolysed 1 h): 30.9 ± 2.32 µM
Cc1ccc2c(Cl)cc(Cl)c([O-])c2n1.Cc1ccc2c(Cl)cc(Cl)c([O-])c2n1.[Co+2].c1ccc(-c2ccnc3c2ccc2c(-c4ccccc4)ccnc23)cc1  IC50 (cell growth or viability, MTT; 48 h): 2.58 µM
NCCOc1cc(NC(=O)c2cc(OCc3cn(Cc4ccc(C(=O)O)cc4)nn3)cc(C(=O)Nc3cc(OCCN)c4ccccc4n3)n2)nc2ccccc12  IC50 (cell growth or viability, ATP luminescence; 72 h): > 40 µM
CNS(=O)(=O)Nc1nccc(Cc2c(C)c3ccc(Oc4ncccc4F)cc3oc2=O)c1F  IC50 (cell viability; 7 days): > 1 µM
COc1ccc(COC[C@](O)(CNCc2ccc(F)cc2)[C@@H]2CC[C@@H](C)C[C@H]2OCc2ccc(OC)cc2)cc1  IC50 (cell growth or viability, MTT; 72 h): 3.62 µM
CCOC(=O)/C=C1\S/C(=N\N=C\c2cccc3cc4ccccc4nc23)N(c2ccc([N+](=O)[O-])cc2)C1=O  IC50 (cell growth or viability, MTT; 48 h): 17.9 µM
CC(=O)[O][Pt]([NH2])([NH2])([Cl])([Cl])[O]C(=O)CCC(C)C1CCC2C3CCC4CC(O)CCC4(C)C3CCC12C (centres unmarked)  IC50 (cell growth or viability, MTT; 72 h): 3.7 µM
CC1(C)S[C@@H]2[C@H](NC(=O)[C@H](NC(=O)C3=C(O)C(c4ccccc4F)NC3=O)c3ccccc3)C(=O)N2[C@H]1C(=O)O (some centres unmarked)  IC50 (cell growth or viability, ATP luminescence; 48 h): 77.3 µg/mL
Cc1c(COc2cc(OCc3cccc(C#N)c3)c(CNC(CO)CO)cc2Cl)cccc1-c1cccc(OCCCCCCC(=O)NO)c1  IC50 (cell growth or viability, CCK-8; 48 h): 11.7 µM
CC(NC(=O)c1ccccc1)C(CCCCCCCCCCCCCCC(=O)CCCCCCCC(OC(=O)c1ccccc1)C(C)NC(=O)c1ccccc1)OC(=O)c1ccccc1 (centres unmarked)  IC50 (cell growth or viability): > 50 µM
COc1ccc(C2CC(=O)c3c(cc(O)c(CC=C(C)C)c3O)O2)cc1 (centres unmarked)  IC50 (cell growth or viability, MTT; 48 h): > 100 µM
CCCCN(C)CC(O)Cn1c2ccc(Br)cc2c2cc(Br)ccc21 (centres unmarked)  IC50 (cell growth or viability): 1.41 µM
C[C@@H]1CC[C@@H]([C@@](O)(COCc2ccccc2)Cn2cnc3ccccc32)[C@H](OCc2ccccc2)C1  IC50 (cell growth or viability, MTT; 72 h): 6.85 µM
CCOC(=O)/C=C1\S/C(=N\N=C\c2cccc3cc4ccccc4nc23)N(CC(C)C)C1=O  IC50 (cell growth or viability, MTT; 48 h): 38.4 µM
C[C@@H]1CC[C@@H]([C@](O)(CNCc2ccccc2F)COCc2ccccc2)[C@H](OCc2ccccc2)C1  IC50 (cell growth or viability, MTT; 72 h): 2.38 µM
COC(=O)[C@@H]1CCCN1C(=O)[C@H](C)N(C)C(=O)OC(C)(C)C  IC50 (cell growth or viability, SRB): 62.4 µM and 86.3 µM and 31.9 µM
O=[C]=[Mn-2]12(=[C]=O)(=[C]=O)[O]c3cc4c(cc3=[N+]1CCc1ccccc1)[O][Mn-2](=[C]=O)(=[C]=O)(=[C]=O)([N+]=4CCc1ccccc1)[n+]1ccc(cc1)C(=O)OCCOC(=O)c1cc[n+]2cc1  IC50 (cell growth, MTT; 48 h, LED photolysed 1 h): 17.3 ± 1.14 µM
Nc1nc(=O)n([C@@H]2O[C@H](CO)[C@@H](O)[C@H]2O)cc1F  IC50 (cell growth or viability): 1.11 µM
CC(C)CN1C(=O)CS/C1=N\N=C\c1cccc2cc3ccccc3nc12  IC50 (cell growth or viability, MTT; 48 h): 30.7 µM
Cc1ccnc(-c2cc(C)ccn2)c1.[Co+2].[O-]c1c(I)cc(I)c2cccnc12.[O-]c1c(I)cc(I)c2cccnc12  IC50 (cell growth or viability, MTT; 48 h): 11.9 µM
CCC(=CCc1c(O)cc2c(c1O)C(=O)CC(c1cccc(OC)c1O)O2)CC (centres unmarked)  IC50 (cytotoxicity, MTT; 48 h): 25.8 ± 3.6 µM
NC(=O)c1nccn([C@@H]2O[C@H](CO)[C@@H](O)[C@H]2O)c1=O  IC50 (cell growth or viability): > 10 µM
Cc1c(COc2cc(OCc3cccc(C#N)c3)c(CN3CCCC[C@H]3C(=O)O)cc2Cl)cccc1-c1cccc(OCCCCCC(=O)NO)c1  IC50 (cell growth or viability, CCK-8; 48 h): 17 µM
C=CCc1c(O)cc2c(c1O)C(=O)CC(c1ccc(O)cc1)O2 (centres unmarked)  IC50 (cell growth or viability, MTT; 48 h): > 100 µM
NC(=O)c1cn([C@@H]2O[C@H](CO)[C@@H](O)[C@H]2O)c2ncnc(N)c2c1=O  IC50 (cell growth or viability): 4.74 µM
CCOC(=O)/C=C1\S/C(=N\N=C\c2cccc3cc4ccccc4nc23)N(c2ccc(OC)cc2)C1=O  IC50 (cell growth or viability, MTT; 48 h): 37.6 µM
Clc1ccnc2c1ccc1c(Cl)ccnc12.[Co+2].[O-]c1c(I)cc(I)c2cccnc12.[O-]c1c(I)cc(I)c2cccnc12  IC50 (cell growth or viability, MTT; 48 h): 10.1 µM
Cc1c(COc2cc(OCc3cccc(C#N)c3)c(CN3CCCC[C@H]3C(=O)O)cc2Cl)cccc1-c1cccc(OCCCCCCC(=O)NO)c1  IC50 (cell growth or viability, CCK-8; 48 h): > 20 µM
C[C@@H]1CC[C@@H]([C@](O)(CNCc2ccc(F)cc2)COCc2ccccc2)[C@H](OCc2ccccc2)C1  IC50 (cell growth or viability, MTT; 72 h): 7.15 µM
Cc1ccc(-c2ccc(C)cn2)nc1  IC50 (cell growth or viability, MTT; 48 h): > 50 µM
O=C(O)C(CO)NCc1cc(Cl)c(OCc2cccc(-c3ccccc3)c2Br)cc1OCc1cccnc1 (centres unmarked)  IC50 (cell growth or viability, MTT): > 10 µM
O=[C]=[Mn-2]12(=[C]=O)(=[C]=O)[O]c3cc4c(cc3=[N+]1CCc1ccccc1)[O][Mn-2](=[C]=O)(=[C]=O)(=[C]=O)([N+]=4CCc1ccccc1)[n+]1ccc(cc1)C(=O)Oc1ccccc1OC(=O)c1cc[n+]2cc1  IC50 (cell growth, MTT; 48 h, LED photolysed 1 h): 31.9 ± 2.63 µM
C[C@@H]1CC[C@@H]([C@](O)(CNCc2cccc(F)c2)COCc2ccccc2)[C@H](OCc2ccccc2)C1  IC50 (cell growth or viability, MTT; 72 h): 2.78 µM
COc1ccnc(-c2cc(OC)ccn2)c1.Cc1ccc2c(Cl)cc(Cl)c([O-])c2n1.Cc1ccc2c(Cl)cc(Cl)c([O-])c2n1.[Co+2]  IC50 (cell growth or viability, MTT; 48 h): 3.06 µM
CC(=O)NCCOCCOCCNC(=O)c1cc(C(=O)N2CCNCCNCCNCC2)c(O)c(C(=O)N2CCNCCNCCNCC2)c1  IC50 (cell growth or viability, MTT; 24 h): > 1000 µM
COc1ccc(CNC[C@@](O)(COCc2ccccc2)[C@@H]2CC[C@@H](C)C[C@H]2OCc2ccccc2)cc1  IC50 (cell growth or viability, MTT; 72 h): 2.38 µM
O=c1[nH]c(=O)n([C@H]2C[C@H](O)[C@@H](CO)O2)cc1F  IC50 (cell growth or viability): > 10 µM
COc1cccc(N2C(=O)CS/C2=N\N=C\c2cccc3cc4ccccc4nc23)c1  IC50 (cell growth or viability, MTT; 48 h): 14.8 µM
